Assay results gathered from unrelated publications.
Protocols differ between the studies behind these lines.

Structure (SMILES) = O=C(Nc1cccc(C(=O)N2CCC(c3nc(-c4ccccc4)n[nH]3)CC2)c1)c1ccccc1; system = human liver microsomes; setting = pH 7.4, together with: NADPH; intrinsic clearance = 595 mL/min/kg
Structure (SMILES) = Cc1ccc2c(c1)nc(NC(=O)c1cccc(C(F)(F)F)c1)n2[C@H]1CC[C@H](N)CC1; system = mouse liver microsomes; setting = mean value; intrinsic clearance = 42.5 µL/min/mg
Structure (SMILES) = [2H]C1([2H])C[C@@H](C[C@@H](C#N)NC(=O)[C@@H]2[C@@H]3[C@H](CN2C(=O)[C@@H](NC(=O)C(F)(F)F)C(C)(C)C)C3(C)C)C(=O)N1; system = mouse liver microsomes; setting = microsomes 0.5 mg/mL; intrinsic clearance = 89.5 µL/min/mg
Structure (SMILES) = O=S(=O)(Nc1ccc(OC(F)(F)F)cc1)N1CCCC(C2c3ccccc3CCc3ccccc32)C1 (stereo not shown); system = liver microsomes; setting = 10 µM; intrinsic clearance = 421 µL/min/mg
Structure (SMILES) = Cc1cc(C(=O)Nc2nc3cccc(C)c3n2[C@H]2CCCCN(C(=O)/C=C/CN(C)C)C2)ccn1; system = mouse liver microsomes; setting = mean value; intrinsic clearance = 65.5 µL/min/mg
Structure (SMILES) = CC(C)(C)[C@H](NC(=O)C(F)F)C(=O)N1C[C@H]2[C@@H]([C@H]1C(=O)N[C@H](C#N)C[C@@H]1CCCNC1=O)C2(C)C; system = human liver microsomes; setting = microsomes 0.5 mg/mL; intrinsic clearance = 30.5 µL/min/mg
Structure (SMILES) = CNC(=O)C1CCCN(C(=O)C2CC3CCC2N3C(=O)[C@@H]2C[C@@H](O)CN2C(=O)NCc2cccc(Cl)c2F)C1 (mixture of isomers); system = mouse liver microsomes; intrinsic clearance = 10.4 µL/min/mg
Structure (SMILES) = CCOC(=O)C12CC(N)(C1)C2; system = human liver microsomes; intrinsic clearance = 140 µL/min/mg
Structure (SMILES) = O=S(=O)(N[C@H]1CCO[C@@H](C2c3ccc(F)cc3CCc3cc(F)ccc32)C1)c1ccc(OC(F)(F)F)cc1; system = liver microsomes; setting = 10 µM; intrinsic clearance = 145 µL/min/mg
Structure (SMILES) = C/C(=N\OCCN1CCCC1)c1ccc(C(F)(F)F)cc1; system = human liver microsomes; setting = 1 µM, 45 min; intrinsic clearance = 50.5 mL/min/kg
